Results collected from several papers.
Protocols differ between the studies behind these lines. ± marks the error that the study gave.

| SMILES | system | conditions | tissue uptake |
| --- | --- | --- | --- |
| CCCC[C@H](NC(=O)CNC(=O)CNC(=O)CN1CCN(CC(=O)O)CCN(CC(=O)O)CCN(CC(=O)O)CC1)C(=O)N[C@H]1CC(=O)NCCCC[C@@H](C(N)=O)NC(=O)[C@H](Cc2c[nH]c3ccccc23)NC(=O)[C@H](CCCNC(=N)N)NC(=O)[C@@H](Cc2ccccc2)NC(=O)[C@H](Cc2c[nH]cn2)NC1=O [lead-203 labelled] | C57 mouse, brain | intravenous, 0.056 MBq, 24 h | 0.01 ± 0.02 %ID/g |
| O=C([O-])CN1CCN(CC(=O)[O-])CCN(CC(=O)NCCc2ccc3c(c2)C2C=CCC2C(c2cc4c(cc2Br)OCO4)N3)CCN(CC(=O)[O-])CC1.[111In+3] (centres unmarked) | mouse, Hec50 endometrial tumour, adrenals | 0.5 h post injection | 7.11 ± 0.51 %ID/g |
| CC(C)[C@H](NC(=O)[C@@H]1CCCN1C(=O)[C@H](CCCNC(=N)N)NC(=O)[C@H](CS)NC(=O)[C@H](Cc1c[nH]c2ccccc12)NC(=O)[C@H](CCCNC(=N)N)NC(=O)[C@@H](Cc1ccccc1)NC(=O)[C@H](Cc1c[nH]cn1)NC(=O)[C@H](CCC(=O)O)NC(=O)[C@H](CS)NC(=O)[C@H](CS)NC(=O)[C@@H]1CC(=O)N[C@@H](CCCNC(=N)N)C(=O)NCC(=O)N[C@@H](CC(=O)O)C(=O)N[C@H](Cc2ccc(O)cc2)C(=O)N1)C(N)=O [technetium-99m labelled] | C57 mouse, female, B16/F1 melanoma, stomach | intravenous, 0.037 MBq, 0.5 h | 4.49 ± 1.59 %ID/g |
| CCCC[C@H](NC(=O)CNC(=O)CNC(=O)CN1CCN(CC(=O)O)CCN(CC(=O)O)CCN(CC(=O)O)CC1)C(=O)N[C@H]1CC(=O)NCCCC[C@@H](C(N)=O)NC(=O)[C@H](Cc2c[nH]c3ccccc23)NC(=O)[C@H](CCCNC(=N)N)NC(=O)[C@@H](Cc2ccccc2)NC(=O)[C@H](Cc2c[nH]cn2)NC1=O [copper-64 labelled] | female C57 mouse, B16/F1 melanoma, kidneys | intravenous, 0.037 MBq, 0.5 h | 14.4 ± 1.85 %ID/g |
| CN(C)c1ccc(-c2nc3ccc(OCCCCCN4CCN5CCN(CC4)CC(=O)[O][Al]([18F])[O]C(=O)C5)cc3s2)cc1 | ICR mouse, liver | intravenous, 60 min | 57.2 ± 3.7 %ID/g |
| CCCC[C@H](NC(=O)CNC(=O)CNC(=O)CN1CCN(CC(=O)O)CCN(CC(=O)O)CC1)C(=O)N[C@H]1CC(=O)NCCCC[C@@H](C(N)=O)NC(=O)[C@H](Cc2c[nH]c3ccccc23)NC(=O)[C@H](CCCNC(=N)N)NC(=O)[C@@H](Cc2ccccc2)NC(=O)[C@H](Cc2c[nH]cn2)NC1=O [copper-64 labelled] | female C57 mouse, B16/F1 melanoma, tumor | intravenous, 0.037 MBq, 2 h | 12.4 ± 1.61 %ID/g |
| CC(C)[C@H](NC(=O)[C@@H]1CCCN1C(=O)[C@H](CCCNC(=N)N)NC(=O)[C@H](CS)NC(=O)[C@H](Cc1c[nH]c2ccccc12)NC(=O)[C@H](CCCNC(=N)N)NC(=O)[C@@H](Cc1ccccc1)NC(=O)[C@H](Cc1c[nH]cn1)NC(=O)[C@H](CCC(=O)O)NC(=O)[C@H](CS)NC(=O)[C@H](CS)NC(=O)CNC(=O)[C@@H]1CC(=O)N[C@@H](CCCNC(=N)N)C(=O)NCC(=O)N[C@@H](CC(=O)O)C(=O)N[C@H](Cc2ccc(O)cc2)C(=O)N1)C(N)=O [technetium-99m labelled] | C57 mouse, female, B16/F1 melanoma, bone | intravenous, 0.037 MBq, 4 h | 0.5 ± 0.3 %ID/g |
| CN1C(=O)[C@@H](Cc2ccc(O)c(I)c2)NC(=O)CNC(=O)[C@H](Cc2ccc3ccccc3c2)NC(=O)[C@H](CCCNC(=N)N)NC(=O)[C@H]1CCCNC(=O)c1ccc(CNC(=O)CN2CCN(CC(=O)O)CCN(CC(=O)O)CCN(CC(=O)O)CC2)cc1 [lutetium-177 labelled] | female CB-17 SCID mouse, Daudi xenograft, uterus | intravenous, 6 h, CXCR4 blocking, together with: AMD3100 2 mg/kg coinjected | 0.39 ± 0.07 %ID/g |

Excerpt of the above:
| SMILES | system | conditions | tissue uptake |
| --- | --- | --- | --- |
| CN1C(=O)[C@@H](Cc2ccc(O)c(I)c2)NC(=O)CNC(=O)[C@H](Cc2ccc3ccccc3c2)NC(=O)[C@H](CCCNC(=N)N)NC(=O)[C@H]1CCCNC(=O)c1ccc(CNC(=O)CN2CCN(CC(=O)O)CCN(CC(=O)O)CCN(CC(=O)O)CC2)cc1 [lutetium-177 labelled] | female CB-17 SCID mouse, Daudi xenograft, uterus | intravenous, 6 h, CXCR4 blocking, together with: AMD3100 2 mg/kg coinjected | 0.39 ± 0.07 %ID/g |
